Measured values collected from several papers.
Each line is one published result; not all experiments were run side by side. “And” joins repeats or separate records; there may be more than shown.
MAPK8: Mitogen-activated protein kinase 8 (MAPK8, Homo sapiens, UniProt P45983)
UniProt P45983, sequence (whole entry, looked up): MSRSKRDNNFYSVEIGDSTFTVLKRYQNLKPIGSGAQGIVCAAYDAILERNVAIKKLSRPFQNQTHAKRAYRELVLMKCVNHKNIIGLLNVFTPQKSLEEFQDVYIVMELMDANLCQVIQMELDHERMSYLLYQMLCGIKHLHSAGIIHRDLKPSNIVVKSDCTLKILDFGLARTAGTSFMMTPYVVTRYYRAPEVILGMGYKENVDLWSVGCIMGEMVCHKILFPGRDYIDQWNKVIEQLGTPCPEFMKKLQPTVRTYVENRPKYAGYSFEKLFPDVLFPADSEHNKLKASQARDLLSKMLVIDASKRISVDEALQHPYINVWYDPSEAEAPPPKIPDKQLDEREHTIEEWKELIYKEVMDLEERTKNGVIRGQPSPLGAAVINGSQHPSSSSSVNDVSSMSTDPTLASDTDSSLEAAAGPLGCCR
UniProt P46089, sequence (whole entry, looked up): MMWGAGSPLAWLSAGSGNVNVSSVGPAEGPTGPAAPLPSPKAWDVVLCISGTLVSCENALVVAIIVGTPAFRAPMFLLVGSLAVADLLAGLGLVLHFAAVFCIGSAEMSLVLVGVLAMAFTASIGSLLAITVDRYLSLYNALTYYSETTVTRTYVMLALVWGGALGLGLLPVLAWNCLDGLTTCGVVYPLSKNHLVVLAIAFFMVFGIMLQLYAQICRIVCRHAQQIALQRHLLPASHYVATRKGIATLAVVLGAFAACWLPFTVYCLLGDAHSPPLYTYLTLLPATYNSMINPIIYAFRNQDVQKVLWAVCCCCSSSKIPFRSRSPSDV
UniProt Q8H1R0, sequence (whole entry, looked up): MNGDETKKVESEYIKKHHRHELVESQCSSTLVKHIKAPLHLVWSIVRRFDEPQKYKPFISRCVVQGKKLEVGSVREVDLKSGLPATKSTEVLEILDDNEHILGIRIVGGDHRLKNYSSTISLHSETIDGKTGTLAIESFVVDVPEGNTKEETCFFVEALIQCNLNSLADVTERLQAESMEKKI
UniProt Q14974, sequence (whole entry, looked up): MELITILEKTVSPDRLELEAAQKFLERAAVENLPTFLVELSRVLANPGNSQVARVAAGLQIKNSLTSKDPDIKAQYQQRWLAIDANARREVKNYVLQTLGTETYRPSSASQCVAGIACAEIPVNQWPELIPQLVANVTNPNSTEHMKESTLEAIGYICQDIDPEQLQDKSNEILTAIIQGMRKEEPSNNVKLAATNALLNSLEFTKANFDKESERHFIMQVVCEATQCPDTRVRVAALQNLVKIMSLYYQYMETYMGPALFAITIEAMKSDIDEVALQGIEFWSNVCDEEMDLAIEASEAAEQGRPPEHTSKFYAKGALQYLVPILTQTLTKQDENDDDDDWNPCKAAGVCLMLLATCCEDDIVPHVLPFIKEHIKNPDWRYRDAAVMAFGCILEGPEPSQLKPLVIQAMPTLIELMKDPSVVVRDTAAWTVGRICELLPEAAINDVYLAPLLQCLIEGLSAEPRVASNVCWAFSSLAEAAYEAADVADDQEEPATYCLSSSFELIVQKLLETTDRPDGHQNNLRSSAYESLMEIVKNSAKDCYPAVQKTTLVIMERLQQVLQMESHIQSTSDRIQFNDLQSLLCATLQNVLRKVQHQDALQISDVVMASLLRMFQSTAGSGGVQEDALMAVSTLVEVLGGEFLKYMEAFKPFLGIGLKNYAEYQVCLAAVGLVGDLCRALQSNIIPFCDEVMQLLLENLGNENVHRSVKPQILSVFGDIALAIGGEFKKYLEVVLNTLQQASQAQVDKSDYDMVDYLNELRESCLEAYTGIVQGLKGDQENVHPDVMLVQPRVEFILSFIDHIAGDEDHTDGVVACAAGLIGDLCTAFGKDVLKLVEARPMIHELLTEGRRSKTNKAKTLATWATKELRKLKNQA
UniProt Q9HB29, sequence (whole entry, looked up): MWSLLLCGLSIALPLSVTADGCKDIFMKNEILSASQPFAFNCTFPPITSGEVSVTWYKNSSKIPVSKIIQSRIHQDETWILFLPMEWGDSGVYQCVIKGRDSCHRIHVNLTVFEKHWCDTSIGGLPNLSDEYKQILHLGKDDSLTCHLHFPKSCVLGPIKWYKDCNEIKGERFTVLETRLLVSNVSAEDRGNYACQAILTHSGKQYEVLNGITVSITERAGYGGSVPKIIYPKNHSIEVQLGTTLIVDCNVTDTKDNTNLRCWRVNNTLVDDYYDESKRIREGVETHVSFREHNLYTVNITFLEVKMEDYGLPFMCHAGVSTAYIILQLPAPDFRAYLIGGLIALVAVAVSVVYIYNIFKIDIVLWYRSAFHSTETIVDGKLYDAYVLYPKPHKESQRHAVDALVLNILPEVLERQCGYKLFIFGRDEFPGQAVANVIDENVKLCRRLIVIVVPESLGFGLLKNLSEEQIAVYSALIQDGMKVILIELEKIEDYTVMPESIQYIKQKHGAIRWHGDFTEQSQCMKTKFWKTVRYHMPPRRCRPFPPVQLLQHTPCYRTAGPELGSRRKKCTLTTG
UniProt O75385, sequence (whole entry, looked up): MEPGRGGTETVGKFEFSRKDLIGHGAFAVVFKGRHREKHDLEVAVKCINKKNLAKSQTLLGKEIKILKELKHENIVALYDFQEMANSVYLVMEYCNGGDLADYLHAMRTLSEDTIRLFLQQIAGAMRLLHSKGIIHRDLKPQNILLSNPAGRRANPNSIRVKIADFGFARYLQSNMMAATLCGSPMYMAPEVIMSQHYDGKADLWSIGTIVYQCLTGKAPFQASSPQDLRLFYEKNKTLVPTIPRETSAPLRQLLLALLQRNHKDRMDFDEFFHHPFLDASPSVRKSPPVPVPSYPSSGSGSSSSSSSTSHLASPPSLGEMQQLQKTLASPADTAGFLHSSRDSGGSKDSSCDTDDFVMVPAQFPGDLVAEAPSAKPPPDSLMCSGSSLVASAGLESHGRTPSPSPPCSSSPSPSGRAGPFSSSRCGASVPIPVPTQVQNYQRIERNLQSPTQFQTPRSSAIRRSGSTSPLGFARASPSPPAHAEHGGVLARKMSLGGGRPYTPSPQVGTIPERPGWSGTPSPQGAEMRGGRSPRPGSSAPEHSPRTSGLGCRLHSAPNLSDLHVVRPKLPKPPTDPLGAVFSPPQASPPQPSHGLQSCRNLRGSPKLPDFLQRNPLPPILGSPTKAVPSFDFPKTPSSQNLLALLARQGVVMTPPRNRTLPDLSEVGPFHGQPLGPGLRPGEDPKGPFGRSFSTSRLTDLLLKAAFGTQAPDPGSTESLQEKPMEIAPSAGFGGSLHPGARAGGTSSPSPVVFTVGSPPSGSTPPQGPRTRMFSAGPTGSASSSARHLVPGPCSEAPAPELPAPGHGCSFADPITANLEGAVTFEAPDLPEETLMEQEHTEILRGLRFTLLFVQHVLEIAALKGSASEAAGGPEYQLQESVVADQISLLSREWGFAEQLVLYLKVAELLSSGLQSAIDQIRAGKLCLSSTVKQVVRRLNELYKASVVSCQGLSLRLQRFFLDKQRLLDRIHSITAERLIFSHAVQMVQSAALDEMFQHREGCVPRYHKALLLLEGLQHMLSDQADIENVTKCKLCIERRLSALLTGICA
UniProt Q96S37, sequence (whole entry, looked up): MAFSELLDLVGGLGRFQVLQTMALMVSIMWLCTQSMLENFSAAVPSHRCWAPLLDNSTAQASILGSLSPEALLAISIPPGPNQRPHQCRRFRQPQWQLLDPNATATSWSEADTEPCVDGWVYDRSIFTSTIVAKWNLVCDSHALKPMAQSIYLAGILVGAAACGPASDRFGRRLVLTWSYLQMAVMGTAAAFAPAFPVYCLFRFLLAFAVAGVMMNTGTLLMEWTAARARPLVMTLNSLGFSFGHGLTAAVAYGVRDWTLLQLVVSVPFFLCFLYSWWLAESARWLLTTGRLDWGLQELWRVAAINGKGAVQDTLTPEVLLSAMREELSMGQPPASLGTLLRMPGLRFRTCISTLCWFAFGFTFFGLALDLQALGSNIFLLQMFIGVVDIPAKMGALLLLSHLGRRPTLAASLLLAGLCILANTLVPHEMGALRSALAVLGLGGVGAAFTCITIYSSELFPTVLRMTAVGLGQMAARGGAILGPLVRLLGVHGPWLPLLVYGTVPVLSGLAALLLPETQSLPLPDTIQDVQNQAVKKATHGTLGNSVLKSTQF
UniProt Q14123, sequence (whole entry, looked up): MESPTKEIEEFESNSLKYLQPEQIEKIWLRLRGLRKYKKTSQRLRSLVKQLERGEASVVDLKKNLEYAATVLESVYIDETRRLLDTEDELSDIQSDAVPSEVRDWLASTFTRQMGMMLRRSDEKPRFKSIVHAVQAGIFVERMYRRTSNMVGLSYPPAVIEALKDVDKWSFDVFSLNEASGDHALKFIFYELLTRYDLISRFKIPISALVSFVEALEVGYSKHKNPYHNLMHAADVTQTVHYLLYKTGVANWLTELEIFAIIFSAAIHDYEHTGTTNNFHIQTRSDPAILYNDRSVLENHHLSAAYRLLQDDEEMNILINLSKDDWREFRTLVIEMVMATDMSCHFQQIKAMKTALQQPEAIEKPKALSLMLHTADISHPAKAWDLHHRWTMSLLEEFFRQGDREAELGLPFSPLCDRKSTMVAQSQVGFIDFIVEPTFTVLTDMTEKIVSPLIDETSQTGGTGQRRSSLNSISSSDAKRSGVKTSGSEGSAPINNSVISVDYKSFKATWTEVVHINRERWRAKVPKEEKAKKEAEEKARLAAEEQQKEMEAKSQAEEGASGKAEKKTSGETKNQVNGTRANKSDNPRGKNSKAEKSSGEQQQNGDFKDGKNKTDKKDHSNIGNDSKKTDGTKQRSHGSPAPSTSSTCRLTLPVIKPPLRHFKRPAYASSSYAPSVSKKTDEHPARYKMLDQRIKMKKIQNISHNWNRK

SMILES = C#CCOC(=O)[C@]1(C)C=C(C(=O)OC(C)(C)C)C(=O)CC1; target = MAPK8; test = enzyme activity, D-SENSOR; setting = 0.1829 µM, single replicate; endpoint = normalized kinase activity; result = 0.997 and 1.05 and 1.06
SMILES = CCCC1(CC)C(=O)N(c2cccc(CN3CCN(Cc4ccc(Br)cc4)CC3)c2)C1=O; target = Dipeptidyl peptidase 8 (Homo sapiens, UniProt Q6V1X1); test = inhibitor; setting = with: GP-AMC substrate; how to read = baseline: Ki' DPP9 over Ki' DPP8; endpoint = selectivity ratio; result = 17
SMILES = COC(=O)[C@]1(Cc2ccccc2)C=C(C(=O)OC(C)(C)C)C(=O)CC1; target = MAPK8; test = D-peptide binding, inhibitor, FP peptide displacement; setting = 125 µM; how to read = lower is stronger displacement; endpoint = fraction bound; result = -0.036
SMILES = Cc1cc(NC(=O)c2cccc(NC(=O)/C(C#N)=C/C(C)(C)C)c2)ccc1Nc1nccc(-c2cccnc2)n1; target = MAPK8; test = SPR two-step binding model; setting = reversible bond formation; endpoint = ΔΔG bond formation contribution; result = -2.25 kcal/mol
SMILES = Clc1ccc(COC(Cn2ccnc2)c2ccc(Cl)cc2Cl)cc1 (stereo not shown); target = Serine/threonine-protein kinase ULK1 (ULK1, Homo sapiens, UniProt O75385); test = enzyme activity, inhibitor, ADP detection; setting = 0.1 µM; endpoint = activity vs control; result = 106%
SMILES = Fc1ccc(Nc2nc(NC3CCCCC3)c3ccccc3n2)cc1F; target = Beta-2 adrenergic receptor (ADRB2, Homo sapiens, UniProt P07550, V126A); test = β-arrestin2 recruitment, antagonist, BRET; setting = mutant V126A; how to read = baseline: isoprenaline maximal response; endpoint = maximal inhibition; result = 6.9%
SMILES = CC(C)[C@@H]1NC(=O)[C@H](Cc2ccccc2)NC(=O)CSC[C@@H](C(N)=O)NC(=O)[C@H](CCC(=O)O)NC(=O)[C@H](CO)NC(=O)[C@H](Cc2c[nH]c3cccc(Cl)c23)NC(=O)[C@H](C2CCCCC2)NC(=O)[C@H](C(C)C)NC(=O)[C@H](Cc2ccc(O)cc2)NC(=O)[C@H](CC(=O)O)NC(=O)[C@H](Cc2c[nH]c3ccccc23)NC(=O)[C@H](Cc2ccc(N)nc2)NC(=O)[C@H](Cc2c[nH]c3ccc(Cl)cc23)NC(=O)[C@H](CCC(=O)O)NC1=O; target = Interleukin-1 receptor-like 2 (IL1RL2, Homo sapiens, UniProt Q9HB29); test = reporter gene (SEAP), inhibitor, HEK-Blue IL-36R reporter; test system = HEK-Blue IL-36R cells; setting = 0.015 µM, 6 h, with: IL-36β 0.01 ng/mL; endpoint = remaining activity; result = 82.2%
SMILES = O=[N+]([O-])c1cc(Br)cc([N+](=O)[O-])c1NS(=O)(=O)c1ccc(Br)cc1; target = PYL10, with HAB1 (Arabidopsis thaliana, UniProt Q8H1R0); test = antagonist; setting = 250 µM, with: ABA 5 µM; how to read = higher = more HAB1 activity; endpoint = HAB1 phosphatase activity; result = 0.106 a.u. and 0.117 a.u. and 0.107 a.u.
SMILES = C[C@@H](Nc1nc2c(cnn2C(C)(C)C)c(=O)n1Cc1cccc(F)c1)c1ccc(Cl)cc1; target = Dual specificity calcium/calmodulin-dependent 3',5'-cyclic nucleotide phosphodiesterase 1C (PDE1C, Homo sapiens, UniProt Q14123); test = inhibitor; how to read = baseline: other PDEs over PDE1; endpoint = selectivity ratio; result = > 100
SMILES = Cc1ccc(C(=O)N2c3ccc(F)cc3[C@@H](Nc3ccccc3)C[C@H]2C)cc1; target = Ecdysone receptor (Aedes albopictus, UniProt Q9U3Y4); test = ligand binding, inhibitor; test system = intact cells; setting = with: [3H]ponasterone A; how to read = direction not given; endpoint = pIC50 Z-score; result = -0.2
SMILES = CC(C)(Sc1nc2ncccc2n1Cc1ccc(Br)c2ccccc12)C(=O)O; target = Solute carrier family 22 member 12 (SLC22A12, Homo sapiens, UniProt Q96S37); test = urate uptake, inhibitor; test system = HEK293T; setting = 10 min, 37 °C, with: 10 µM [14C]urate; endpoint = IC50; result = -0.478 log µM
SMILES = CCCCCCCCCCCCC/C=C/C=O; target = Importin subunit beta-1 (KPNB1, Homo sapiens, UniProt Q14974); test = competitive isoTOP-ABPP; test system = Ramos soluble proteome; setting = 100 µM, with: iodoacetamide probe; how to read = baseline: DMSO over compound-treated, higher = stronger cysteine blockade; endpoint = isoTOP-ABPP competition ratio; result = 1
SMILES = CC(C)Oc1cc(Cl)ccc1CNc1cc(-c2ccccc2)nc2ncnn12; target = G-protein coupled receptor 3 (GPR3, Homo sapiens, UniProt P46089); test = cAMP reporter; test system = human cells; setting = 1 µM; how to read = higher is more cAMP; endpoint = cAMP luminescence; result = 10800 a.u. and 8220 a.u. and 8180 a.u. and 7820 a.u. and 4430 a.u.

For quick reference, copied from above:
SMILES = O=[N+]([O-])c1cc(Br)cc([N+](=O)[O-])c1NS(=O)(=O)c1ccc(Br)cc1; target = PYL10, with HAB1 (Arabidopsis thaliana, UniProt Q8H1R0); test = antagonist; setting = 250 µM, with: ABA 5 µM; how to read = higher = more HAB1 activity; endpoint = HAB1 phosphatase activity; result = 0.106 a.u. and 0.117 a.u. and 0.107 a.u.
SMILES = COC(=O)[C@]1(Cc2ccccc2)C=C(C(=O)OC(C)(C)C)C(=O)CC1; target = MAPK8; test = D-peptide binding, inhibitor, FP peptide displacement; setting = 125 µM; how to read = lower is stronger displacement; endpoint = fraction bound; result = -0.036
